# Results of several laboratories.
# Each numbered part is a random draw from the data of one study; scales do not carry over between parts.

# Block 1
# Target: Centromere-binding protein 1, full length, His-tagged (CBF1, Saccharomyces cerevisiae, UniProt P17106, residues 1-351)
# UniProt P17106, sequence (whole entry, looked up): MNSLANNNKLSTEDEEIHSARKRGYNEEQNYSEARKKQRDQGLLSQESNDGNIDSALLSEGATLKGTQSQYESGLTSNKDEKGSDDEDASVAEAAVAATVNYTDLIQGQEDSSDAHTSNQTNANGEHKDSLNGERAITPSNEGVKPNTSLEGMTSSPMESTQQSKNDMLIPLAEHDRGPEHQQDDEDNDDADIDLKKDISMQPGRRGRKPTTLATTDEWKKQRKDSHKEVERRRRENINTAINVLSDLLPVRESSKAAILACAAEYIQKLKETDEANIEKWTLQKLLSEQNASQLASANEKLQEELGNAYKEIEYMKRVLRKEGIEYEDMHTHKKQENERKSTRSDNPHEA
# Method: competition protein-binding microarray
# Molecule type: double-stranded DNA, one strand shown
# Medium: in vitro
# Tested at: 2 µM
# Setting: whole 60-bp probe, lowest competitor level
# Added: Pho4 competitor, 0.05 µM
# Reading: higher = stronger binding
# All sequences stand within: … GTCTTGATTCGCTTGACGCTGCTG
Sequence,fluorescence intensity
CATACCCAACCTTGCAAGGTGGGTGAAGATATTTGT,55.7 a.u.
AAATTACTAAGTTGTGTTGTGGGTGACGCCGTATGA,68.3 a.u.
CTAACGAAGGTTTGTCCGGTGGGTGACAAGCCAAGT,66.3 a.u.
TCATGATTGTCTTGATGTGCTTTGCCGGGCTATACA,76 a.u.
CTCAAACGAAGAAAGCACGTGAGGATTGAAGAAAAA,1670 a.u.
AGAAAGGTAGTGTCCCACGTCAGTAGAACCATGCGC,54.9 a.u.

# Block 2
# Target: RNA binding protein fox-1 homolog 2, RRM domain, GST-SBP tag (RBFOX2, Homo sapiens, UniProt O43251-10, residues 100-194)
# Method: RNA Bind-n-Seq
# Molecule type: RNA
# Medium: in vitro
# Tested at: 365 nM
# Setting: natural RNA segment, single round, ends assumed
# Baseline: no-protein control
# Reading: higher = stronger binding
Sequence,RBNS enrichment (R)
GGGAGUUCUACAGUCCGACGAUCUUUAAUGGCAGUCACAACUCUGAAACCUUUUGUUCGUGCCGGCUUCAGGUCAAUGUGUUUAUGUGAUAAAUGGGAGUGAUAACAGAAGCUUUAAUGGGAGAGUAAGAAAUUGGAAUUCUCGGGUGCCAA,1.4
GGGAGUUCUACAGUCCGACGAUCUCUUACCGGUCAUAGGCCCCGGUGAGGAGCAGGGAAGCGCCAUUGUGAAAGAUUAAAGAAAGCACUUCCACUUGAGCUCCUUAUGGAGUGAGCUUCCCUGUGCCCACUCAUGGAAUUCUCGGGUGCCAA,0.369
GGGAGUUCUACAGUCCGACGAUCAGUAUAUUCUGUAAAACAGAAUGCAGACGAUGUUAAGAAGGCUCUAGAUGGCGAACUUGAUGAAAAGUAUAAGAAGGUAGAAAGUUUAAUUGCCCAAAAAACUGAAGAGUUGGAAUUCUCGGGUGCCAA,0.621
GGGAGUUCUACAGUCCGACGAUCCUGAGUAACCCAGACCCCCCACCGUGGUUCUUUUCACAGCCCUCGACUUUGCACUUAAAAAGGGAUAUUGUAAAUGAAAGGCUGCAGUGCCAGUUUUAAGAAAGAAUUUCUGGAAUUCUCGGGUGCCAA,1.95

# Block 3
# Target: Interferon regulatory factor 3, full length, phosphomimetic (IRF3, Homo sapiens, UniProt Q14653, residues 1-427, S386D/S396D/S398D/S402D/T404D/S405D)
# UniProt Q14653, sequence (whole entry, unmodified, looked up): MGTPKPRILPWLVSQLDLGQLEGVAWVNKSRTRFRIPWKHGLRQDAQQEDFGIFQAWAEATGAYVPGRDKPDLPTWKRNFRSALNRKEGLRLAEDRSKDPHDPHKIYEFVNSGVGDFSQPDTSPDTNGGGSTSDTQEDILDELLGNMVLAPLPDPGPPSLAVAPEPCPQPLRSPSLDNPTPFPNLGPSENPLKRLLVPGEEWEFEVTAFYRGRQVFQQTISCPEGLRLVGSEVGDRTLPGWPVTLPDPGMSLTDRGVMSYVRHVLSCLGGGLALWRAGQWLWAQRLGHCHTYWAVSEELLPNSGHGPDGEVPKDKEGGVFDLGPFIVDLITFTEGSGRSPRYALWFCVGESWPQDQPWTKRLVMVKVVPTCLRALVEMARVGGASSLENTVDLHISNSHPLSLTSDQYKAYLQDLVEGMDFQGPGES
# Method: protein-binding microarray
# Molecule type: double-stranded DNA, one strand shown
# Medium: in vitro
# Tested at: 2540 nM top
# Setting: 60-bp whole probe
# Added: salmon DNA 0.4 mg/ml
# Baseline: random background probes
# Reading: higher = stronger binding
# All sequences stand within: GCCTAGCAC … GTCTTGATTCGCTTGACGCTGCTG
Sequence,fitted relative affinity [z-score]
CATTTTCTCTGTTCTAGAAGGTGCTAG,3.75
TTAGATATCGGGTATCGAGTAGTGCTA,0.0111
TTAGGTATCAACACTGGGTTAGTGCTA,0.101
GACGATTTCGGGTATCGGGACGTGCTA,2.13
AAGGTTATCCATCTCAAGTAGTGCTAG,2.13
GGCCTTGGAGGGGGTGGGTGGTGCTAG,-0.714

# Single results of other studies
Molecule,target,test,test system,setting,scale,endpoint,value
"PhoQ, residues 284 288 289 292 302 303 ALASRC","PhoP, residues 12 14 15 18 19 AWHSL (Escherichia coli, UniProt P23836)","Sort-seq, item: YFP reporter",E. coli,"PhoQ-PhoP variant library, added: 10 µM Mg2+","baseline: high Mg2+ state, higher = stronger signaling",fold induction,1.95

# For quick reference, copied from above (block 1):
Sequence,fluorescence intensity
AGAAAGGTAGTGTCCCACGTCAGTAGAACCATGCGC,54.9 a.u.
AAATTACTAAGTTGTGTTGTGGGTGACGCCGTATGA,68.3 a.u.
